Literature values, collected from citations in different studies.
In brackets after ≈: the same amount, converted by molar mass.

SMILES | assay | system | conditions | endpoint | value
COc1ccc([C@@]23Oc4cc(OC)cc(OC)c4[C@@]24NC(C)=N[C@@]4(O)[C@H](C(=O)N(C)OC)[C@H]3c2ccccc2)cc1 | mRNA translation | Krebs-2 cell extracts |  | EC50 | 39 nM
NCCCS(=O)(=O)O | measured: insoluble amyloid plaques | transgenic AD mouse model | oral, dose not given, repeated dosing | reduction | ~30%
O=C1c2c(O)cc(O)cc2OC(c2ccc(O)c(O)c2)C1O (stereo not shown) | DMPD radical scavenging |  |  | IC50 | 173 µg/mL (≈ 569 µM)
CONC(=O)[C@H]1[C@@H](O)[C@@]2(O)c3c(OC)cc(OC)cc3O[C@@]2(c2ccc(OC)cc2)[C@@H]1c1ccccc1 | mRNA translation | Krebs-2 cell extracts |  | EC50 | 272 nM
C=CC(=O)N[C@H]1C=C(C)c2c(-c3cnc4ccccc4c3)c3c(N)ncnc3n2C1 | phase 1/2 trial | human, NSCLC patients | dose not given | objective response rate | 38.4%
CC(=O)c1c(O)c(C)c(O)c2c1OC1=CC(=O)C(C(C)=O)C(=O)C12C (stereo not shown) | ABTS radical scavenging |  |  | IC50 | 10.4 µg/mL (≈ 30.2 µM)
C=CCONC(=O)c1ccc2oc(-c3ccccc3O)nc2c1 | degrader, measured: REST | cells |  | concentration for 50% reduction | 50 to 100 µM
CNC(=O)N(N(CCCl)S(C)(=O)=O)S(C)(=O)=O |  | CD2F1 female mice, L1210 leukemia | ip, single dose LD50 over ED50 | therapeutic index | > 8
NC(=O)CC[C@H](NC(=O)[C@@H]1CC[C@@H]2CCN(C(=O)CCCCCC#Cc3cccc4c3CN(C3CCC(=O)NC3=O)C4=O)C[C@H](NC(=O)c3cc4cc(C(F)(F)P(=O)(O)O)ccc4[nH]3)C(=O)N21)C(=O)NC(c1ccccc1)c1ccccc1 (stereo partly shown) |  | mouse, SU-DHL-1 xenograft | weekly dosing | dose for complete regression | 100 mg/kg
O=c1oc2cc(O)ccc2c2oc3cc(O)ccc3c12 | DMPD radical scavenging |  |  | IC50 | 12.8 µg/mL (≈ 47.8 µM)
Cn1cc2cc(C(F)(F)c3nnc4ccc(-c5cnn(C6CC6)c5)nn34)c(F)cc2n1 |  | human, NSCLC patients | dose not given, phase II | disease control rate | 96.2%
O=C(/C=C/c1ccc(O)c(O)c1)OCCc1ccccc1 | DMPD radical scavenging |  |  | IC50 | 26.7 µg/mL (≈ 93.9 µM)
Nc1ccn([C@@H]2O[C@H](CO)[C@@H](O)C2(F)F)c(=O)n1 |  | pancreatic cancer patients | dose not given | median progression-free survival | 2.51 months

Some of these lines once more:
SMILES | assay | system | conditions | endpoint | value
CNC(=O)N(N(CCCl)S(C)(=O)=O)S(C)(=O)=O |  | CD2F1 female mice, L1210 leukemia | ip, single dose LD50 over ED50 | therapeutic index | > 8
NCCCS(=O)(=O)O | measured: insoluble amyloid plaques | transgenic AD mouse model | oral, dose not given, repeated dosing | reduction | ~30%
